Published values of several laboratories.
Protocols differ between the studies behind these lines. ± marks the error that the study gave.
KDM1A: Lysine-specific histone demethylase 1A (KDM1A, Homo sapiens, UniProt O60341)
Rhomboid protease AarA: Rhomboid protease AarA (Providencia stuartii, UniProt P46116)
Sequence of UniProt P46116 (whole entry, looked up): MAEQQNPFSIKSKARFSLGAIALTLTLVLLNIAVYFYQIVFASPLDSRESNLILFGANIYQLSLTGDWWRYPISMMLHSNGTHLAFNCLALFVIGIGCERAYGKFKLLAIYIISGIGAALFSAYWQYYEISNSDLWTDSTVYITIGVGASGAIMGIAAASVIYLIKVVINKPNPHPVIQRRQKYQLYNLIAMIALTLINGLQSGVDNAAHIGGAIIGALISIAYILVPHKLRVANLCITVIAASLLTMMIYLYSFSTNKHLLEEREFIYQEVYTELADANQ
Sequence of UniProt Q9HB29 (whole entry, looked up): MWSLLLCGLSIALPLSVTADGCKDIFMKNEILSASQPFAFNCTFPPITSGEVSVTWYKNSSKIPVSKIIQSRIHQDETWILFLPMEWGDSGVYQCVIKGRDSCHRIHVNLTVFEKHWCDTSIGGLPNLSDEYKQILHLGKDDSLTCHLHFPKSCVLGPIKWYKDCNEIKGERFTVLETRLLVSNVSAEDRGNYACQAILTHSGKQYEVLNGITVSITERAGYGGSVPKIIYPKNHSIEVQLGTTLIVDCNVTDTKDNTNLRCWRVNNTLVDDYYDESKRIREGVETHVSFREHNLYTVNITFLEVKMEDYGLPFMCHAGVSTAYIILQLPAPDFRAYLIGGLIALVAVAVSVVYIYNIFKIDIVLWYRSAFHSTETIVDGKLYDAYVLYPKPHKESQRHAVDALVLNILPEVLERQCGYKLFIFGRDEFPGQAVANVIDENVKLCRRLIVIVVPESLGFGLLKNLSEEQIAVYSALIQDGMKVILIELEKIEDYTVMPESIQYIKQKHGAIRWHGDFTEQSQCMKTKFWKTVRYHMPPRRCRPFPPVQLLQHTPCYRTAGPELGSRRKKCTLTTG
Sequence of UniProt O75417 (whole entry, looked up): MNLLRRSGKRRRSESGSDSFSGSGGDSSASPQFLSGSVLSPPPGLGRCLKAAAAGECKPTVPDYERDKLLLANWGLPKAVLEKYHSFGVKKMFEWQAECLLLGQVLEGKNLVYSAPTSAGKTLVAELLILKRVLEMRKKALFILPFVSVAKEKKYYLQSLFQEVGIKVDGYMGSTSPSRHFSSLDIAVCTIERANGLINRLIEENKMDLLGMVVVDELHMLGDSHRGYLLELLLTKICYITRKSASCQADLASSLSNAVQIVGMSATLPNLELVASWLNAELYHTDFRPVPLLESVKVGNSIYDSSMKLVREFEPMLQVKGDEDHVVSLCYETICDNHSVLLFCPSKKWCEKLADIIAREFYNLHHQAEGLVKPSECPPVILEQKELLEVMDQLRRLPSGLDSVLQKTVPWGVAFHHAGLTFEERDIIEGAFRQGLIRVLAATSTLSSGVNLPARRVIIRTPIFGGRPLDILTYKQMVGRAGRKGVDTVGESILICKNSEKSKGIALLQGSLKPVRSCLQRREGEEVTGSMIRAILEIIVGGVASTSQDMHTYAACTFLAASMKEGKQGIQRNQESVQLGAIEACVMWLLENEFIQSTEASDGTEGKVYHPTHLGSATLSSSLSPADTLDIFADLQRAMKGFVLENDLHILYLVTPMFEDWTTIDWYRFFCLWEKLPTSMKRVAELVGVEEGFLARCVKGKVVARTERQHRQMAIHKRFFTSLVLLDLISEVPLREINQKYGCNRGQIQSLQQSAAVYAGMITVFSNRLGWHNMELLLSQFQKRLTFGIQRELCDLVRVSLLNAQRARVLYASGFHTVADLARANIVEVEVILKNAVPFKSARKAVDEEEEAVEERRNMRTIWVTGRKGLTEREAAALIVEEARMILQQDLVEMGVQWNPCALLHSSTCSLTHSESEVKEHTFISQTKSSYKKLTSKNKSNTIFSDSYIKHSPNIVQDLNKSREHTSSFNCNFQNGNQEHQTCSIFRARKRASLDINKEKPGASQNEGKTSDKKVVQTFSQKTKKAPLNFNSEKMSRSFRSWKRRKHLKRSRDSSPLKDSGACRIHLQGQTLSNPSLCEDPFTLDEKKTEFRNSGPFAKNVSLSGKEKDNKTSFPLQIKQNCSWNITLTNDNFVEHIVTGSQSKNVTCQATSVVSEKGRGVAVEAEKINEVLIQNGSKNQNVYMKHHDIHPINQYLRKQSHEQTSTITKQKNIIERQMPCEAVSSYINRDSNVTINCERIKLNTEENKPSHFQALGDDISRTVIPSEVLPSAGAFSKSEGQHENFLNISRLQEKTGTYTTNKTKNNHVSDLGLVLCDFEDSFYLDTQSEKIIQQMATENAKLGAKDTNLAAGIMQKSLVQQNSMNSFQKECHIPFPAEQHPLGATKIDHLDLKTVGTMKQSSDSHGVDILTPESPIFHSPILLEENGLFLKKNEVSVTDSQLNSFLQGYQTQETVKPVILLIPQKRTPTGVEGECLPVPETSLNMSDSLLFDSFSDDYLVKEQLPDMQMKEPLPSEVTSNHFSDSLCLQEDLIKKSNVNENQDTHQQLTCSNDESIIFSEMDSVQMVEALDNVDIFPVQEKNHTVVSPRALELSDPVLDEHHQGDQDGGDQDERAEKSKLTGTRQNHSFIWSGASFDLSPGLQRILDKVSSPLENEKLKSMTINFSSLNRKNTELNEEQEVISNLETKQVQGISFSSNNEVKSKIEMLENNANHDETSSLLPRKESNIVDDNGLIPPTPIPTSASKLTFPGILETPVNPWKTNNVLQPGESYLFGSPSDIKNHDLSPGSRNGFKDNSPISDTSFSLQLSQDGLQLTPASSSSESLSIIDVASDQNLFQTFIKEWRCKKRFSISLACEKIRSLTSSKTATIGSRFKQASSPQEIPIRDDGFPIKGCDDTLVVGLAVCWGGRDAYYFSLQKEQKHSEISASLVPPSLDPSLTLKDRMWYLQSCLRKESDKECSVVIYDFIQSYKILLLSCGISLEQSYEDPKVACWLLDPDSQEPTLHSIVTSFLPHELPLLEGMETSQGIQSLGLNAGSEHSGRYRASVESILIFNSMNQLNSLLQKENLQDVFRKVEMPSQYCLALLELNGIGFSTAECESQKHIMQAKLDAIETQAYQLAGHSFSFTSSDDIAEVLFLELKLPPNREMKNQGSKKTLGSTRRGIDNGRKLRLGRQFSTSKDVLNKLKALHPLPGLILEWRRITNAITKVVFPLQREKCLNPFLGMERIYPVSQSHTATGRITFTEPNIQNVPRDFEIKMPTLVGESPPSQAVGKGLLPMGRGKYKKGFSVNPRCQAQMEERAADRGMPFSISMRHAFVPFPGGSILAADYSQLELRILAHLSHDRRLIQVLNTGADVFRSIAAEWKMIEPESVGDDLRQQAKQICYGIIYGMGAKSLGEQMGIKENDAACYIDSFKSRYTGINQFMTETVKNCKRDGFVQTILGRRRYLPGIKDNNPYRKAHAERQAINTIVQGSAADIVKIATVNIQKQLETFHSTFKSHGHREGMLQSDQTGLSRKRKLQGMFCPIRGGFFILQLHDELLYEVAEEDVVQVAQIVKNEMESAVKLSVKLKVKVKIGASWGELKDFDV
Sequence of UniProt Q8IZL9 (whole entry, looked up): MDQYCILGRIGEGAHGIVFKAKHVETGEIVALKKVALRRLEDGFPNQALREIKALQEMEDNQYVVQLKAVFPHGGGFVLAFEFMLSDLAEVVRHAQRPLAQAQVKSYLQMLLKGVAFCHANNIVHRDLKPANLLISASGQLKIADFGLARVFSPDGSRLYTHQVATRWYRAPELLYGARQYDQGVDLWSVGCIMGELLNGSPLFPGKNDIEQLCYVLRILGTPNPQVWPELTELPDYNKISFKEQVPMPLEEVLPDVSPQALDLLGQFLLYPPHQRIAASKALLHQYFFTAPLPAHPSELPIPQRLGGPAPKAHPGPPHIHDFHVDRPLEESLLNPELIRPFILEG
Sequence of UniProt Q9Y337 (whole entry, looked up): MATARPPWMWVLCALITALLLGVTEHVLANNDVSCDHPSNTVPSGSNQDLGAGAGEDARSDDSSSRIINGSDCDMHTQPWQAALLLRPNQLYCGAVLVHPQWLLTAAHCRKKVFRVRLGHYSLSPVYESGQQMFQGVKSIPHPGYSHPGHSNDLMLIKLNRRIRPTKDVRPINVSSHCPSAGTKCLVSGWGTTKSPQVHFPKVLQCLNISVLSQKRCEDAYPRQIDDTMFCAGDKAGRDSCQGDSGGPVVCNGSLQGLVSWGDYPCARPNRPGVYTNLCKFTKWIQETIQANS
Sequence of UniProt P12295 (whole entry, looked up): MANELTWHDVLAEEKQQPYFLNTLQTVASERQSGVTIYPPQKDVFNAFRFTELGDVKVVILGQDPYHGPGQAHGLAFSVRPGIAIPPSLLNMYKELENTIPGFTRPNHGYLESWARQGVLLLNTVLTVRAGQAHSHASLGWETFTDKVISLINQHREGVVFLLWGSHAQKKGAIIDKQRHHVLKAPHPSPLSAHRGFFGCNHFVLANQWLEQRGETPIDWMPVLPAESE

SMILES | target | test | test system | setting | scale | remaining activity [%]
O=C(Nc1cccc([C@@H]2C[C@H]2NC2CCC2)c1)c1ccccc1 | KDM1A | demethylase activity, inhibitor |  | 16.67 µM, added: H3K4me2 peptide |  | 19.8
CN1C[C@@H](c2c[nH]c3cc(Br)ccc23)NC[C@@H]1c1c[nH]c2cc(Br)ccc12 | Cyclin-dependent kinase 20, with cyclin H (CDK20, Homo sapiens, UniProt Q8IZL9) | enzyme activity, inhibitor |  | 10 µM |  | 100
Cc1cnc(NC(=O)c2cccc([C@@H]3C[C@H]3NC3CCC3)c2)s1 | KDM1A | demethylase activity, inhibitor, Amplex Red |  | 0.00823 µM, added: H3K4me2 peptide | relative to: vehicle | 98.1
CC(C)[C@@H]1NC(=O)[C@H](Cc2ccccc2)NC(=O)CSC[C@@H](C(N)=O)NC(=O)[C@H](CCC(=O)O)NC(=O)[C@H](CO)NC(=O)[C@H](Cc2c[nH]c3cccc(Cl)c23)NC(=O)[C@H](C2CCCCC2)NC(=O)[C@H](C(C)C)NC(=O)[C@H](Cc2ccc(O)cc2)NC(=O)[C@H](CC(=O)O)NC(=O)[C@H](Cc2c[nH]c3ccccc23)NC(=O)[C@H](Cc2ccc(N)nc2)NC(=O)[C@H](Cc2c[nH]c3ccc(Cl)cc23)NC(=O)[C@H](CCC(=O)O)NC1=O | Interleukin-1 receptor-like 2 (IL1RL2, Homo sapiens, UniProt Q9HB29) | reporter gene (SEAP), inhibitor, HEK-Blue IL-36R reporter | HEK-Blue IL-36R cells | 0.005 µM, 6 h, added: IL-36γ 10 ng/mL |  | 114
O=C1CC(c2ccccc2)N1S(=O)(=O)c1ccc(Cl)cc1 (stereo not shown) | Rhomboid protease AarA | substrate cleavage, gel-based |  | 100 µM | relative to: DMSO | 76
O=C(Nc1ccccc1)c1cccc([C@@H]2C[C@H]2NC2CCC2)c1 (racemic) | KDM1A | demethylase activity, inhibitor, Amplex Red |  | 0.2222 µM, added: H3K4me2 peptide | relative to: vehicle | 57.9
OCC1CCCN(CCNc2cc(-c3ccccc3)nc3ccnn23)C1 (stereo not shown) | ung (Escherichia coli, UniProt P12295) | enzyme activity, inhibitor |  | concentration not given, counter-screen |  | 99.5 ± 4.8
CN(C)C(=O)c1cccc([C@@H]2C[C@H]2NC2CCC2)c1 | KDM1A | demethylase activity, inhibitor |  | 5.556 µM, added: H3K4me2 peptide |  | 82
O=C1CC(c2ccc(Br)cc2)N1S(=O)(=O)c1cccc(Cl)c1 (stereo not shown) | Rhomboid protease AarA | substrate cleavage, gel-based |  | 100 µM | relative to: DMSO | 58
C[C@](C(=O)NC1CCOCC1)(c1cncnc1)N(C(=O)[C@H](F)Cl)c1ccc(OC(F)(F)Cl)cc1 | Kallikrein-5 (Homo sapiens, UniProt Q9Y337) | enzyme activity, inhibitor |  | 10 µM |  | 100
COc1ccccc1-c1ccncc1C(=O)Nc1ccc(OCc2ccc(Cl)cc2)nn1 | DNA polymerase theta, helicase domain (POLQ, Homo sapiens, UniProt O75417) | ATPase activity, ADP-Glo |  | 1.9 µM | relative to: 0 µM cpd | 72
Cc1cc(C(=O)Nc2nc3cccc(C)c3n2[C@H]2CCCCN(C(=O)/C=C/CN(C)C)C2)ccn1 | CDC2-like kinase 1 (Trypanosoma brucei brucei, UniProt Q382U0) | kinase activity, ADP-Glo |  | 0.625 µM |  | 1.73
COC(=O)[C@@]1(C)C=C(C(=O)Nc2cccc(C(=O)Nc3ccc(Nc4nccc(-c5cccnc5)n4)c(C)c3)c2)C(=O)CC1 | human CK1 | 33PanQinase |  | 1 µM | relative to: control | 81

Repeated from above:
SMILES | target | test | test system | setting | scale | remaining activity [%]
Cc1cnc(NC(=O)c2cccc([C@@H]3C[C@H]3NC3CCC3)c2)s1 | KDM1A | demethylase activity, inhibitor, Amplex Red |  | 0.00823 µM, added: H3K4me2 peptide | relative to: vehicle | 98.1
